Published values of several laboratories.
Lines come from different studies, so protocols differ. “And” joins repeats or separate records; there may be more than shown.
Target: Cyclin-G-associated kinase (GAK, Homo sapiens, UniProt O14976)

SMILES | test | system | conditions | how to read | measurement | result
C[C@H]1CN(C(=O)c2cn(-c3ccnc(N)n3)c3cc(C#CC4(O)CCCCC4)ccc23)CCN1 | cell-free assay, TR-FRET | – | 1 µM | – | inhibition | 3%
C=CC(=O)Nc1cc(-c2nn(C3CCN(CCNC(=O)[C@H](C)CCC45CC6CC(CC(C6)C4)C5)CC3)c3ncnc(N)c23)ccc1Oc1ccccc1 | inhibitor, KiNativ profiling | biochemical | 2 µM | – | inhibition | 16.5%
CNC1C[S+]2CC[S+]3CC[S+](C1)[Ru-4]321([N]=C=S)[n]2c3ccc(OC)cc3c3c4c(c5cc(F)c[n+]1c5c32)C(=O)NC4=O (stereo not drawn) | KinomeScan | – | 0.1 µM | relative to: untreated | remaining binding | 14%
C=CC(=O)N1CCc2ccc(-n3c(=O)ccc4cnc5ccc(-c6cnn(C)c6)cc5c43)cc21 | KINOMEscan | – | 1 µM | relative to: DMSO control | remaining binding | 76%
Cc1ccc(-c2c(/C=C(\C#N)C(=O)NC(C)C)n(CCCO)c3ncnc(N)c23)cc1 | cell-free assay, competition with immobilised ligand | – | 1 µM | – | remaining binding | 61%
COc1ccc(O)cc1-c1c[nH]c2ncc(-c3cncc(C(=O)N(C)C)c3)cc12 | binding, competition with immobilised ligand | – | 0.2 µM | – | inhibition | 0.77%
C=CC(=O)N1Cc2nc(-c3cc(-c4cc(Cl)cnc4Cl)c(F)cc3F)n(-c3ccncn3)c2C1 | cell-free assay, inhibitor | – | 1 µM | – | inhibition | 7.8%
O=C(Cc1ccc(OCc2ccccc2)cc1)NC1(C(=O)O)CCN(C(=O)c2ccc(-c3cccc(Cl)c3)cc2)CC1 | enzyme activity, inhibitor | – | 10 µM | – | activity vs control | 110%
CCN1CCN(Cc2ccc(NC(=O)c3ccc(C)c(NC(=O)c4cncc(-c5cccs5)c4)c3)cc2C(F)(F)F)CC1 | binding, competition with immobilised ligand | – | 1 µM | – | remaining binding | 1%
CCN1CCN(Cc2ccc(C(=O)Nc3ccc(C)c(NCc4cnc5[nH]ccc5c4OC)c3)cc2C(F)(F)F)CC1 | binding, competition with immobilised ligand | – | 1 µM | – | remaining binding | 3.9%
CCn1cc(C(=O)O)c(=O)c2c(N)c(F)c(NC3CCCCC3)cc21 | kinase activity | – | 0.1 µM, together with: ATP at Km | – | inhibition | 9.1%
COc1cc(Nc2nc(C)cc(-c3cnn4nc(OC)ccc34)n2)cc(C(F)(F)F)c1 | inhibitor | – | 1 µM | relative to: control | remaining activity | 87%
CN1CCN(Cc2ccc(-c3ccc(CO[C@H]4CCC[C@@H]4NC(=O)c4cc(-c5cnn(C)c5)cnc4N)cc3)cc2)CC1 | enzyme activity, inhibitor | – | 0.1 µM | – | inhibition | -1%
C=CC(=O)N1CCCC(n2c(=O)c3ncccc3n(Cc3ccc(Oc4ccccc4)cc3)c2=O)C1 (stereo not drawn) | cell-free assay, competition with immobilised ligand | – | 1 µM | – | remaining binding | 100%
CC(C)=CC1OC(C)(C)C2C=C3C(=O)C(Cl)=CC(O)C3C3C(O)C4OC4C(=O)C132 (stereo not drawn) | cell-free assay, competition with immobilised ligand | – | 10 µM | – | remaining binding | 93%
COc1cc(Nc2nccc(-c3cnn4nc(OC)ccc34)n2)cc(C(F)(F)F)c1 | binding, competition with immobilised ligand | – | 1 µM | – | remaining binding | 94%
N[C@H]1CC[C@H](Nc2nccc(-c3cccnc3Oc3ccc(NC(=O)NC4CC4)c4ccccc34)n2)CC1 | kinobead competition pulldown | HEK293/HCT116 lysate mixture | 10 µM, 1 h, 4 °C | lower = stronger competition | log2 LFQ intensity | 29.6 and 29.7
COc1c(Cl)cccc1Nc1c(-c2ccncc2C#C[C@@]2(C)CCCN2C(=O)/C=C/CN(C)C)[nH]c2c1C(=O)NCC2 | binding, competition with immobilised ligand | – | 3 µM | – | remaining binding | 68%
CNC(=O)C1CCN(c2cc(C)c(F)cc2NC(=O)c2ccc(-c3cc(O)ccc3C)c(C)c2)CC1 | binding, competition with immobilised ligand | – | 1 µM | – | remaining binding | 17%
Nc1ncc2c(n1)-c1c([nH]c3ccc(C4=CCOCC4)cc13)CCC2 | binding, competition with immobilised ligand | – | 1 µM | – | remaining binding | 100%
Cc1cnc2nc1Nc1cccc(c1)COC/C=C/COCc1cc(ccc1OCCN1CCOCC1)N2 | binding | – | 0.1 µM | – | remaining binding | 54%
